Experimental data pooled from the literature.
Numbers after ± are the reported error.
gyrB with GyrA: DNA gyrase subunit B, with GyrA (gyrB, Mycobacterium tuberculosis, UniProt P9WG45)
UniProt P9WG45, sequence (whole entry, looked up): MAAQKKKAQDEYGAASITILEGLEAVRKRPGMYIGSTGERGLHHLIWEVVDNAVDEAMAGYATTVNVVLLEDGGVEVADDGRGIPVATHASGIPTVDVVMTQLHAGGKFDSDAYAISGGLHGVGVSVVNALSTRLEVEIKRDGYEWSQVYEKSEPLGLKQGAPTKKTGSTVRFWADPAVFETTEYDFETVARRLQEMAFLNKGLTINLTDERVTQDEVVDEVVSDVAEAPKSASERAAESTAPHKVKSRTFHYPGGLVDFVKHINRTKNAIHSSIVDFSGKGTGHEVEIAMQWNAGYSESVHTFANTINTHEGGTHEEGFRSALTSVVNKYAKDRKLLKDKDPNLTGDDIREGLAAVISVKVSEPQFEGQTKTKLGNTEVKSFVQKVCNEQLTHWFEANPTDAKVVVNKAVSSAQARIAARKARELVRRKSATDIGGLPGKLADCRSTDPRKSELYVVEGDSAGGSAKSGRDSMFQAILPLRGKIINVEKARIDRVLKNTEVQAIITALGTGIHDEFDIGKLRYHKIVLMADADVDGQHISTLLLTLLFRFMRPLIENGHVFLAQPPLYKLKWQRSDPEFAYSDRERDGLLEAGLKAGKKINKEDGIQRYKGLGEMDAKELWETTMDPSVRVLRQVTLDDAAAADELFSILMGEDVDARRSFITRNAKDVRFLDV
UniProt Q7NDN8, sequence (whole entry, looked up): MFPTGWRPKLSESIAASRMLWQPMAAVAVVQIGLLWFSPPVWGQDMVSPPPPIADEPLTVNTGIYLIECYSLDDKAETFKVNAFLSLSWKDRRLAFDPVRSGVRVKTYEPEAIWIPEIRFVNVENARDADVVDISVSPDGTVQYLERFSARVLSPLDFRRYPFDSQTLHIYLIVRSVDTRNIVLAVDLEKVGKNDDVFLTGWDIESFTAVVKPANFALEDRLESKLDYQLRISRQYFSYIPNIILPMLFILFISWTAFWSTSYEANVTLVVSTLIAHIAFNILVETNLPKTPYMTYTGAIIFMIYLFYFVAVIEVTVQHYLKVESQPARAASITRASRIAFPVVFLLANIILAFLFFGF
UniProt Q99571, sequence (whole entry, looked up): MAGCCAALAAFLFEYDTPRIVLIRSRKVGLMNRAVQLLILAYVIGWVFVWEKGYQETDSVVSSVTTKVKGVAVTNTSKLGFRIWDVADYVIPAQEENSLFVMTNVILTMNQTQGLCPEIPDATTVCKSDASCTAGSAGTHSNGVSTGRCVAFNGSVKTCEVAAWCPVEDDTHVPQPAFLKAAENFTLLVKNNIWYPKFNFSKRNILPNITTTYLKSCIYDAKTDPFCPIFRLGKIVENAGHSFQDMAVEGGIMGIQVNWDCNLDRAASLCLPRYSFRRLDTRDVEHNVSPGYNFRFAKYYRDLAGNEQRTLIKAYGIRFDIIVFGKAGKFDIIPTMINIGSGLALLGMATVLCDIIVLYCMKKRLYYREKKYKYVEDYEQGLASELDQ
UniProt P32297, sequence (whole entry, looked up): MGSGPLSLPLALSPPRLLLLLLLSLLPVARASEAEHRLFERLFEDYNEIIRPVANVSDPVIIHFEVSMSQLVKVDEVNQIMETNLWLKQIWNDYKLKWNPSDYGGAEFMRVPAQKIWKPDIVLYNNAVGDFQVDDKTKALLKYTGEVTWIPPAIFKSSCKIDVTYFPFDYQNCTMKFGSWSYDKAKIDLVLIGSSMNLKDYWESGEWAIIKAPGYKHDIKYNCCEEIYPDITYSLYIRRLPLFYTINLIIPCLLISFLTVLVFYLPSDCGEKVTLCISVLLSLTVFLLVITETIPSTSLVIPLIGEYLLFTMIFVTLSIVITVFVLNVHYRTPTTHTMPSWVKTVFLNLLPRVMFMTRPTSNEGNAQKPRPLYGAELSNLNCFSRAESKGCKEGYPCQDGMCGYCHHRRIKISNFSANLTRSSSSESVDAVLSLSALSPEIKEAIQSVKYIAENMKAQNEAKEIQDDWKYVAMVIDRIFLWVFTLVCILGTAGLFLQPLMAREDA
UniProt Q05421, sequence (whole entry, looked up): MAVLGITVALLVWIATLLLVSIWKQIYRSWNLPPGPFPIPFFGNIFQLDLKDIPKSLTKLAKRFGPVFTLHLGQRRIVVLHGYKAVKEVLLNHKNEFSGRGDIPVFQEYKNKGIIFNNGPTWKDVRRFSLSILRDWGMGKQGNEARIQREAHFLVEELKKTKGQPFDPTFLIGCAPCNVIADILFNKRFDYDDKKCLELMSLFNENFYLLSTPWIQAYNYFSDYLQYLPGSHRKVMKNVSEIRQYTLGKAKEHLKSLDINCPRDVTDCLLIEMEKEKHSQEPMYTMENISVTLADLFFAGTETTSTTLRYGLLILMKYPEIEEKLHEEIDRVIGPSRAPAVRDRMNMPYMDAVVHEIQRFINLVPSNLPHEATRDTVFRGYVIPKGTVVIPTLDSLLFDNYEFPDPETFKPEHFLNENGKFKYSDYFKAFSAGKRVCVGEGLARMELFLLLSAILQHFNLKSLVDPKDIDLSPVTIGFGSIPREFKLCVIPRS
UniProt P23975, sequence (whole entry, looked up): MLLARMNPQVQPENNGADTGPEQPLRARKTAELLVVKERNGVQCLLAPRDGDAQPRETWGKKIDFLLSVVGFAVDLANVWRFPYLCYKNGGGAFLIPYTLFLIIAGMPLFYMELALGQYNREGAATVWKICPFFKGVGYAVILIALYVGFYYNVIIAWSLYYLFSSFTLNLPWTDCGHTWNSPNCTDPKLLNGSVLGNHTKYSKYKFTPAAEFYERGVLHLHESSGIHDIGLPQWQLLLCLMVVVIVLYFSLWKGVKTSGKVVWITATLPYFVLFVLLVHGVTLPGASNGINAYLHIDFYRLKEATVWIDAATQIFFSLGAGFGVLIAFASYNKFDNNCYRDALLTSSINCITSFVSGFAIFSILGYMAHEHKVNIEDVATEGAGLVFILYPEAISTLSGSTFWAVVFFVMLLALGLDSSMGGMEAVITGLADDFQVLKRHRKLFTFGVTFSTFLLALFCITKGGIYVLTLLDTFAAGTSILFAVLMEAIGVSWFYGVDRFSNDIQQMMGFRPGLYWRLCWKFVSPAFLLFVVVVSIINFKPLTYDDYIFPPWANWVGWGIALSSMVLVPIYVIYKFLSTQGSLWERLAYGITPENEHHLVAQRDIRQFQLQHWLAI
UniProt Q96JH7, sequence (whole entry, looked up): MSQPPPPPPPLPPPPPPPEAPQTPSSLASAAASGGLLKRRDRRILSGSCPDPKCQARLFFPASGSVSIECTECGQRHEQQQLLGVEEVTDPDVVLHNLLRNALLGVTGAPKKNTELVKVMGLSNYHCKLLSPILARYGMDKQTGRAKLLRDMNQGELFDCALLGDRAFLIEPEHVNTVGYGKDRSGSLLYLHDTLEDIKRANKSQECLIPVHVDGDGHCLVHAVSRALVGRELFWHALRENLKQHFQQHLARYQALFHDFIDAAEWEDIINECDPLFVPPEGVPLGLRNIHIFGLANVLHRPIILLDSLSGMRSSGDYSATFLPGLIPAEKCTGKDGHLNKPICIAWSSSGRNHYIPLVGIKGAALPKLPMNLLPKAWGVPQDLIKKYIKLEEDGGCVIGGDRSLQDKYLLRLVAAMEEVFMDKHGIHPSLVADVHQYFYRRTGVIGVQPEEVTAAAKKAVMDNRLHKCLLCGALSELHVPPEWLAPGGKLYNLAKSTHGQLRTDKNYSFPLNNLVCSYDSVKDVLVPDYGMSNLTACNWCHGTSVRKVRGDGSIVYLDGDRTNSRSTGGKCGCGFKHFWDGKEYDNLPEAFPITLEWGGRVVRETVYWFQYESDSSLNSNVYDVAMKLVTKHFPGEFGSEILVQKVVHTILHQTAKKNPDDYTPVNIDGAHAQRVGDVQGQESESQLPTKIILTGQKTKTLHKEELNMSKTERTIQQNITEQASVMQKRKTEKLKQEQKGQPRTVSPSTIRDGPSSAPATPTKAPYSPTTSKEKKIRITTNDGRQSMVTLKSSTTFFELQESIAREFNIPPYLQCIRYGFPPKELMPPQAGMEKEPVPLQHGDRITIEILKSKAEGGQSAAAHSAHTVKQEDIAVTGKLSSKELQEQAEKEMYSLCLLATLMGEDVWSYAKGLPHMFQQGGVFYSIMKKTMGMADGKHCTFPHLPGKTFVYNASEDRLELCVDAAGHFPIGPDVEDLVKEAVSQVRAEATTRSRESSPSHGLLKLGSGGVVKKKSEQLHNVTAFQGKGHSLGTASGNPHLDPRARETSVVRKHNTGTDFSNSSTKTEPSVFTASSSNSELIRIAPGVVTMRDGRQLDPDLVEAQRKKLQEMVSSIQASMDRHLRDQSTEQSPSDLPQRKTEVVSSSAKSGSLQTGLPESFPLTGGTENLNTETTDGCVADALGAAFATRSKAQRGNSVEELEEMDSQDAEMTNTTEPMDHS
UniProt P9WIY3, sequence (whole entry, looked up): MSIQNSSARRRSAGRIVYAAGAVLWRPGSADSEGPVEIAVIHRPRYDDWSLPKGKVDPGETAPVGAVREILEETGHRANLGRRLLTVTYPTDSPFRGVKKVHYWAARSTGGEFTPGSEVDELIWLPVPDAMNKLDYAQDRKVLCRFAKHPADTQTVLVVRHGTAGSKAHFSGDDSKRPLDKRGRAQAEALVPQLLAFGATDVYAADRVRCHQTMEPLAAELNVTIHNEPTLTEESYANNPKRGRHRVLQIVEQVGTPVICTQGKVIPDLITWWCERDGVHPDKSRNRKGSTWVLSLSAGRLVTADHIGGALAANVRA

| SMILES | target or system | assay | system | conditions | quantity | result |
| --- | --- | --- | --- | --- | --- | --- |
| CN[C@]1(c2ccccc2Cl)CCCCC1=O | Neuronal acetylcholine receptor; alpha3/beta4 (Homo sapiens, UniProt P30926+P32297) | channel function, antagonist, IonWorks Barracuda | – | – | IC50 | 5.8 µM |
| O=C(CCc1c(C(=O)N2CCCCC2)[nH]c2ccc(Cl)cc12)Nc1ccc(Cl)cc1 | gyrB with GyrA | inhibitor | – | – | IC50 | 191 µM |
| O=C(O)CCCO | Calcium/calmodulin-dependent protein kinase type II subunit alpha (Camk2a, Mus musculus, UniProt P11798) | [3H]HOCPCA binding | mouse cortical neuron homogenate | – | IC50 | 2.04 µM |
| F | 8-oxo-(d)GTP phosphatase (mutT1, Mycobacterium tuberculosis, UniProt P9WIY3) | – | – | – | IC50 | 340 ± 90 µM |
| O=c1[nH]c2ccccc2n1C1CCN(CCCC(c2ccc(F)cc2)c2ccc(F)cc2)CC1 | Deubiquitinating protein VCPIP1 (VCPIP1, Homo sapiens, UniProt Q96JH7) | enzyme activity, MALDI-TOF | – | 35 min preincubation, 30 °C | IC50 | 1.33 µM |
| COC(=O)CCc1c(C(=O)N2CCCC2)[nH]c2ccc(Cl)cc12 | gyrB with GyrA | inhibitor | – | – | IC50 | > 500 µM |
| Cc1ccc(Nc2nccc(N(C)c3ccc4c(C)n(C)nc4c3)n2)cc1S(N)(=O)=O | human coronavirus OC43 | virus-induced cell killing | MRC-5 | maximum over 10 doses | maximum inhibition | 0% |
| C[C@@]12CC[C@H](O)C[C@@H]1CC[C@H]1[C@H]2CC[C@@]2(C)C(=O)CC[C@H]12 | 5-hydroxytryptamine receptor 3A (HTR3A, Homo sapiens, UniProt P46098) | ion channel, blocker, FLIPR | – | – | IC50 | 6.15 µM |
| O=S(=O)(c1ccc(C(F)(F)F)cc1)N1CCNCC1COc1ccc2ccccc2c1 (stereo not drawn) | P2X purinoceptor 4 (P2RX4, Homo sapiens, UniProt Q99571) | Ca2+ flux, antagonist | human cells expressing P2RX4 | racemate tested | IC50 | > 10 µM |
| OCCCCO | Cytochrome P450 2E1 (Cyp2e1, Mus musculus, UniProt Q05421) | 4-nitrophenol hydroxylation, inhibitor | B6C3F1 mouse, liver microsomes | 30 min, with: 4-nitrophenol 50 µM | IC50 | 3200 µM |
| CC(C)C[C@H](NC(=O)OCc1ccccc1)C(=O)N[C@H](C=O)C[C@@H]1CCCNC1=O | Genome polyprotein, 3C-like protease (Lordsdale virus, UniProt P54634) | – | – | – | IC50 | 3.74 ± 0.42 µM |
| O=C(CCc1c(C(=O)N2CCCC2)[nH]c2ccc(Cl)cc12)Nc1ccc(Cl)cc1 | gyrB with GyrA | inhibitor | – | – | IC50 | 174 µM |
| COc1ccc2c3c([nH]c2c1)C(C)=NCC3 | Dual specificity tyrosine-phosphorylation-regulated kinase 1A (Dyrk1a, Rattus norvegicus, UniProt Q63470) | inhibitor | – | – | IC50 | 4.59 ± 0.46 µM |
| COC(=O)CCc1c(C(=O)N2CCOCC2)[nH]c2ccc(Cl)cc12 | gyrB with GyrA | inhibitor | – | – | IC50 | > 500 µM |
| CNC(C)Cc1ccc2c(c1)OCO2 (stereo not drawn) | Sodium-dependent noradrenaline transporter (SLC6A2, Homo sapiens, UniProt P23975) | – | – | – | IC50 | 4.9 ± 0.3 µM |
| O=C(CCc1c(C(=O)Nc2ccncc2)[nH]c2ccc(C(F)(F)F)cc12)Nc1ccncc1 | gyrB with GyrA | inhibitor | – | – | IC50 | 24 µM |
| [N-]=[N+]=[N-].[Na+] | human coronavirus OC43 | virus-induced cell killing | MRC-5 | screen | maximum inhibition | 23.6% |
| CC(NC(C)(C)C)C(=O)c1cccc(Cl)c1 (stereo not drawn) | Proton-gated ion channel (glvI, Gloeobacter violaceus, UniProt Q7NDN8) | proton-induced current, inhibitor, two-electrode voltage clamp | Xenopus oocytes | holding -60 mV, proton pH50 | IC50 | 14.9 µM |

For quick reference, copied from above:
| SMILES | target or system | assay | system | conditions | quantity | result |
| --- | --- | --- | --- | --- | --- | --- |
| F | 8-oxo-(d)GTP phosphatase (mutT1, Mycobacterium tuberculosis, UniProt P9WIY3) | – | – | – | IC50 | 340 ± 90 µM |
| O=c1[nH]c2ccccc2n1C1CCN(CCCC(c2ccc(F)cc2)c2ccc(F)cc2)CC1 | Deubiquitinating protein VCPIP1 (VCPIP1, Homo sapiens, UniProt Q96JH7) | enzyme activity, MALDI-TOF | – | 35 min preincubation, 30 °C | IC50 | 1.33 µM |
| COC(=O)CCc1c(C(=O)N2CCCC2)[nH]c2ccc(Cl)cc12 | gyrB with GyrA | inhibitor | – | – | IC50 | > 500 µM |
